{"data": "Experimental data collected from several papers", "note": "Every numbered part comes from another study and shows a few of its results, in no order. ± gives the spread as reported."}
{"data": "Block 1", "cell line": "human erythrocytes, washed", "time": "1 h", "temperature": "37 °C", "notes": "2% v/v RBC suspension"}
{"Compound": "CC[C@H](C)[C@H](NC(=O)CNC(=O)[C@H](C)NC(=O)[C@H](CCC(=O)O)NC(=O)[C@@H]1CCCN1C(=O)[C@H](CC(=O)O)NC(=O)[C@H](C)N)C(=O)NCC(=O)N[C@@H](C)C(=O)N[C@H](C(=O)N[C@@H](CC(C)C)C(=O)N[C@@H](CCCCN)C(=O)N[C@H](C(=O)N[C@@H](CC(C)C)C(=O)N[C@H](C(=O)N[C@H](C(=O)NCC(=O)N[C@@H](CC(C)C)C(=O)N1CCC[C@H]1C(=O)N[C@@H](C)C(=O)N[C@@H](CC(C)C)C(=O)N[C@H](C(=O)N[C@@H](CO)C(=O)N[C@@H](Cc1c[nH]c2ccccc12)C(=O)N[C@H](C(=O)N[C@@H](CCCCN)C(=O)N[C@@H](CCCNC(=N)N)C(=O)N[C@@H](CCCCN)C(=O)N[C@@H](CCCNC(=N)N)C(=O)N[C@@H](CCC(N)=O)C(=O)N[C@@H](CCC(N)=O)C(N)=O)[C@@H](C)CC)[C@@H](C)CC)[C@@H](C)O)[C@@H](C)O)C(C)C)C(C)C", "HD50 [µmol/L]": "6.2 ± 0.2"}
{"Compound": "CC[C@H](C)[C@H](NC(=O)CNC(=O)[C@H](C)NC(=O)[C@H](CCC(=O)O)NC(=O)[C@@H]1CCCN1C(=O)CNC(=O)[C@H](C)NC(=O)[C@H](CCC(=O)O)NC(=O)[C@H](C)NC(=O)[C@H](CC(=O)O)NC(=O)[C@H](C)NC(=O)[C@H](CCC(=O)O)NC(=O)[C@H](C)NC(=O)[C@H](CCC(=O)O)NC(=O)[C@@H]1CCCN1C(=O)[C@@H](N)CCC(=O)O)C(=O)NCC(=O)N[C@@H](C)C(=O)N[C@H](C(=O)N[C@@H](CC(C)C)C(=O)N[C@@H](CCCCN)C(=O)N[C@H](C(=O)N[C@@H](CC(C)C)C(=O)N[C@H](C(=O)N[C@H](C(=O)NCC(=O)N[C@@H](CC(C)C)C(=O)N1CCC[C@H]1C(=O)N[C@@H](C)C(=O)N[C@@H](CC(C)C)C(=O)N[C@H](C(=O)N[C@@H](CO)C(=O)N[C@@H](Cc1c[nH]c2ccccc12)C(=O)N[C@H](C(=O)N[C@@H](CCCCN)C(=O)N[C@@H](CCCNC(=N)N)C(=O)N[C@@H](CCCCN)C(=O)N[C@@H](CCCNC(=N)N)C(=O)N[C@@H](CCC(N)=O)C(=O)N[C@@H](CCC(N)=O)C(N)=O)[C@@H](C)CC)[C@@H](C)CC)[C@@H](C)O)[C@@H](C)O)C(C)C)C(C)C", "HD50 [µmol/L]": "56.9 ± 3.1"}
{"Compound": "CC[C@H](C)[C@H](NC(=O)CNC(=O)[C@H](C)NC(=O)[C@@H](N)CCC(=O)O)C(=O)NCC(=O)N[C@@H](C)C(=O)N[C@H](C(=O)N[C@@H](CC(C)C)C(=O)N[C@@H](CCCCN)C(=O)N[C@H](C(=O)N[C@@H](CC(C)C)C(=O)N[C@H](C(=O)N[C@H](C(=O)NCC(=O)N[C@@H](CC(C)C)C(=O)N1CCC[C@H]1C(=O)N[C@@H](C)C(=O)N[C@@H](CC(C)C)C(=O)N[C@H](C(=O)N[C@@H](CO)C(=O)N[C@@H](Cc1c[nH]c2ccccc12)C(=O)N[C@H](C(=O)N[C@@H](CCCCN)C(=O)N[C@@H](CCCNC(=N)N)C(=O)N[C@@H](CCCCN)C(=O)N[C@@H](CCCNC(=N)N)C(=O)N[C@@H](CCC(N)=O)C(=O)N[C@@H](CCC(N)=O)C(N)=O)[C@@H](C)CC)[C@@H](C)CC)[C@@H](C)O)[C@@H](C)O)C(C)C)C(C)C", "HD50 [µmol/L]": "1.7 ± 0.1"}
{"data": "Further values, each from its own experiment"}
{"Structure (SMILES)": "CC[C@H](C)[C@H](NC(=O)[C@H](Cc1ccccc1)NC(=O)[C@H](CC(=O)O)NC(=O)[C@H](CCCCN)NC(=O)[C@H](C)NC(=O)[C@H](CCCCN)NC(=O)[C@H](CC(N)=O)NC(=O)[C@H](CC(C)C)NC(=O)[C@H](Cc1c[nH]c2ccccc12)NC(=O)[C@H](CCC(=O)O)NC(=O)[C@H](CCCCN)NC(=O)[C@H](Cc1c[nH]c2ccccc12)NC(=O)CNC(=O)[C@H](C)N)C(=O)N[C@@H](CCCCN)C(=O)N[C@@H](CCC(=O)O)C(=O)N[C@@H](CCCCN)C(=O)NCC(=O)N[C@@H](CC(C)C)C(=O)NCC(=O)N[C@@H](CCSC)C(=O)N[C@@H](CC(C)C)C(=O)N[C@@H](CO)C(=O)N[C@@H](C)C(=O)N[C@@H](C)C(=O)N[C@@H](C)C(=O)N[C@@H](CC(N)=O)C(=O)N[C@@H](C)C(=O)N[C@@H](C)C(=O)N[C@@H](CC(C)C)C(=O)N[C@@H](CC(N)=O)C(=O)O", "target or system": "Lucilia cuprina", "conditions": "thorax injection, 24 h", "quantity": "LD50", "value": "12.1 ± 3.3 nmol/g"}
{"Structure (SMILES)": "CC[C@H](C)[C@@H]1NC(=O)[C@H](CCCNC(=N)N)NC(=O)[C@H](CO)NC(=O)[C@H](CCC(=O)O)NC(=O)[C@H](CC(=O)O)NC(=O)CNC(=O)CNC(=O)[C@H]([C@@H](C)O)NC(=O)[C@H](Cc2ccccc2)NC(=O)[C@H](CO)NC(=O)[C@H]([C@@H](C)O)NC(=O)[C@H](C)NC(=O)[C@@H]2CSSC[C@@H](C(=O)N[C@@H](Cc3ccc(O)cc3)C(=O)N[C@@H](Cc3ccccc3)C(=O)N[C@H](C(=O)N[C@H](C(=O)NCC(=O)O)[C@@H](C)O)[C@@H](C)O)NC(=O)[C@H]([C@@H](C)O)NC(=O)[C@H](CSSC[C@H](NC(=O)[C@H](CCC(=O)O)NC(=O)[C@H](CO)NC(=O)[C@H](CCCCN)NC(=O)[C@H](Cc3ccc(O)cc3)NC(=O)[C@@H]3CCCN3C(=O)[C@H](Cc3ccccc3)NC(=O)[C@H](CCCCN)NC(=O)[C@H](CCCNC(=N)N)NC(=O)[C@H](CCCCN)NC(=O)[C@H](CCCCN)NC(=O)[C@H](Cc3ccc(O)cc3)NC(=O)[C@@H]3CCCN3C(=O)[C@@H](NC(=O)[C@H](CC(=O)O)NC(=O)[C@H](CCCCN)NC(=O)[C@H](CCCCN)NC(=O)[C@@H](NC(=O)[C@@H](NC(=O)[C@@H](N)CCC(=O)O)C(C)C)[C@@H](C)CC)[C@@H](C)O)C(=O)N[C@@H](CC(C)C)C(=O)N[C@@H](CCCCN)C(=O)N[C@@H](C)C(=O)N2)NC(=O)[C@H](CCCCN)NC(=O)[C@H](Cc2ccccc2)NC(=O)[C@H](Cc2ccccc2)NC(=O)CNC(=O)[C@@H]2CCCN2C(=O)[C@H](CCCCN)NC(=O)CNC(=O)[C@H](CCC(=O)O)NC(=O)[C@H](CCC(N)=O)NC1=O", "target or system": "Potassium voltage-gated channel subfamily KQT member 1 (KCNQ1, Homo sapiens, UniProt P51787)", "assay": "ion current, inhibitor", "conditions": "pH 7.4, homotetrameric channel", "quantity": "IC50", "value": "2800 ± 500 nM"}
{"Structure (SMILES)": "CC[C@H](C)[C@H](NC(=O)[C@H](Cc1ccccc1)NC(=O)[C@H](CC(=O)O)NC(=O)[C@H](CCCCN)NC(=O)[C@H](C)NC(=O)[C@H](CCCCN)NC(=O)[C@H](CC(N)=O)NC(=O)[C@H](CC(C)C)NC(=O)[C@H](Cc1c[nH]c2ccccc12)NC(=O)[C@H](CCC(=O)O)NC(=O)[C@H](CCCCN)NC(=O)[C@@H](NC(=O)CN)[C@@H](C)O)C(=O)N[C@@H](CCCCN)C(=O)N[C@@H](CCC(=O)O)C(=O)N[C@@H](CCCCN)C(=O)NCC(=O)N[C@@H](CC(C)C)C(=O)NCC(=O)N[C@@H](CCSC)C(=O)N[C@@H](CC(C)C)C(=O)N[C@@H](CO)C(=O)N[C@@H](C)C(=O)N[C@@H](C)C(=O)N[C@@H](C)C(=O)N[C@@H](CC(N)=O)C(=O)N[C@@H](C)C(=O)N[C@@H](C)C(=O)N[C@@H](CC(C)C)C(=O)N[C@@H](CC(N)=O)C(=O)O", "target or system": "Lucilia cuprina", "conditions": "thorax injection, 1 h", "quantity": "PD50", "value": "12.1 ± 3.9 nmol/g"}
{"Structure (SMILES)": "CC(C)C[C@@H]1NC(=O)[C@H](CCCNC(=N)N)NC(=O)[C@@H]2CCCN2C(=O)[C@@H]2CSSC[C@H](NC(=O)CNC(=O)[C@@H]3CCCN3C(=O)[C@H](CCCCN)NC(=O)[C@H](CC(=O)O)NC(=O)[C@@H](NC(=O)CN)C(C)C)C(=O)N[C@@H](CCCNC(=N)N)C(=O)N[C@@H](Cc3ccc(O)cc3)C(=O)N[C@@H](CC(C)C)C(=O)N[C@@H](Cc3ccccc3)C(=O)NCC(=O)NCC(=O)N[C@H]3CSSC[C@H](NC(=O)CNC1=O)C(=O)N[C@@H](CCCCN)C(=O)NCC(=O)N[C@@H](CCCCN)C(=O)NCC(=O)N[C@@H](Cc1c[nH]cn1)C(=O)N[C@@H](CC(=O)O)C(=O)N[C@@H](Cc1ccc(O)cc1)C(=O)N[C@H](C(=O)N[C@@H](C)C(=O)N[C@@H](Cc1c[nH]c4ccccc14)C(=O)N[C@@H](CC(=O)O)C(=O)NCC(=O)N[C@H](C(=O)N[C@@H](Cc1ccccc1)C(=O)N[C@@H](CO)C(=O)N[C@@H](CC(=O)O)C(=O)O)[C@@H](C)O)CSSC[C@H](NC(=O)[C@H](CC(=O)O)NC(=O)[C@H](CC(=O)O)NC(=O)[C@H](CC(=O)O)NC(=O)[C@H](CO)NC(=O)[C@H](CCCCN)NC3=O)C(=O)N2", "assay": "electronic von Frey", "system": "adult mice", "conditions": "intraplantar, 0.06 nmol/paw", "quantity": "paw withdrawal threshold", "value": "1.3 ± 0.2 g"}
{"Structure (SMILES)": "CCC1C=C(C(=O)NC2(C(=O)O)CC2CC)C2CCC(=O)C2C1 (stereo not drawn)", "target or system": "COI1/TIFY10A, with JAZ1 (Arabidopsis thaliana, UniProt O04197+Q9LMA8)", "assay": "saturation binding", "conditions": "dialyzed COI1, added: 1 µM Ins(1,2,4,5,6)P5", "quantity": "Kd", "value": "30 ± 5 nM"}
{"Structure (SMILES)": "CC[C@H](C)[C@H](NC(=O)[C@H](Cc1ccccc1)NC(=O)[C@H](CC(=O)O)NC(=O)[C@H](CCCCN)NC(=O)[C@H](C)NC(=O)[C@H](CCCCN)NC(=O)[C@H](CC(N)=O)NC(=O)[C@H](CC(C)C)NC(=O)[C@H](Cc1c[nH]c2ccccc12)NC(=O)[C@H](CCC(=O)O)NC(=O)[C@H](CCCCN)NC(=O)[C@@H](NC(=O)CNC(=O)[C@H](C)N)[C@@H](C)O)C(=O)N[C@@H](CCCCN)C(=O)N[C@@H](CCC(=O)O)C(=O)N[C@@H](CCCCN)C(=O)NCC(=O)N1CCC[C@H]1C(=O)NCC(=O)N[C@@H](CCSC)C(=O)N[C@@H](CC(C)C)C(=O)N[C@@H](CO)C(=O)N[C@@H](C)C(=O)N[C@@H](C)C(=O)N[C@@H](C)C(=O)N[C@@H](CC(N)=O)C(=O)N[C@@H](C)C(=O)N[C@@H](C)C(=O)N[C@@H](CC(C)C)C(=O)N[C@@H](CC(N)=O)C(=O)O", "target or system": "Lucilia cuprina", "conditions": "thorax injection, 1 h", "quantity": "PD50", "value": "> 50 nmol/g"}
{"note": "Excerpt of the above (further values, each from its own experiment):"}
{"Structure (SMILES)": "CC(C)C[C@@H]1NC(=O)[C@H](CCCNC(=N)N)NC(=O)[C@@H]2CCCN2C(=O)[C@@H]2CSSC[C@H](NC(=O)CNC(=O)[C@@H]3CCCN3C(=O)[C@H](CCCCN)NC(=O)[C@H](CC(=O)O)NC(=O)[C@@H](NC(=O)CN)C(C)C)C(=O)N[C@@H](CCCNC(=N)N)C(=O)N[C@@H](Cc3ccc(O)cc3)C(=O)N[C@@H](CC(C)C)C(=O)N[C@@H](Cc3ccccc3)C(=O)NCC(=O)NCC(=O)N[C@H]3CSSC[C@H](NC(=O)CNC1=O)C(=O)N[C@@H](CCCCN)C(=O)NCC(=O)N[C@@H](CCCCN)C(=O)NCC(=O)N[C@@H](Cc1c[nH]cn1)C(=O)N[C@@H](CC(=O)O)C(=O)N[C@@H](Cc1ccc(O)cc1)C(=O)N[C@H](C(=O)N[C@@H](C)C(=O)N[C@@H](Cc1c[nH]c4ccccc14)C(=O)N[C@@H](CC(=O)O)C(=O)NCC(=O)N[C@H](C(=O)N[C@@H](Cc1ccccc1)C(=O)N[C@@H](CO)C(=O)N[C@@H](CC(=O)O)C(=O)O)[C@@H](C)O)CSSC[C@H](NC(=O)[C@H](CC(=O)O)NC(=O)[C@H](CC(=O)O)NC(=O)[C@H](CC(=O)O)NC(=O)[C@H](CO)NC(=O)[C@H](CCCCN)NC3=O)C(=O)N2", "assay": "electronic von Frey", "system": "adult mice", "conditions": "intraplantar, 0.06 nmol/paw", "quantity": "paw withdrawal threshold", "value": "1.3 ± 0.2 g"}
